Experimental data of several laboratories.
Every numbered part comes from another study and shows a few of its results, in no order.
Sequence of UniProt P51957 (whole entry, looked up): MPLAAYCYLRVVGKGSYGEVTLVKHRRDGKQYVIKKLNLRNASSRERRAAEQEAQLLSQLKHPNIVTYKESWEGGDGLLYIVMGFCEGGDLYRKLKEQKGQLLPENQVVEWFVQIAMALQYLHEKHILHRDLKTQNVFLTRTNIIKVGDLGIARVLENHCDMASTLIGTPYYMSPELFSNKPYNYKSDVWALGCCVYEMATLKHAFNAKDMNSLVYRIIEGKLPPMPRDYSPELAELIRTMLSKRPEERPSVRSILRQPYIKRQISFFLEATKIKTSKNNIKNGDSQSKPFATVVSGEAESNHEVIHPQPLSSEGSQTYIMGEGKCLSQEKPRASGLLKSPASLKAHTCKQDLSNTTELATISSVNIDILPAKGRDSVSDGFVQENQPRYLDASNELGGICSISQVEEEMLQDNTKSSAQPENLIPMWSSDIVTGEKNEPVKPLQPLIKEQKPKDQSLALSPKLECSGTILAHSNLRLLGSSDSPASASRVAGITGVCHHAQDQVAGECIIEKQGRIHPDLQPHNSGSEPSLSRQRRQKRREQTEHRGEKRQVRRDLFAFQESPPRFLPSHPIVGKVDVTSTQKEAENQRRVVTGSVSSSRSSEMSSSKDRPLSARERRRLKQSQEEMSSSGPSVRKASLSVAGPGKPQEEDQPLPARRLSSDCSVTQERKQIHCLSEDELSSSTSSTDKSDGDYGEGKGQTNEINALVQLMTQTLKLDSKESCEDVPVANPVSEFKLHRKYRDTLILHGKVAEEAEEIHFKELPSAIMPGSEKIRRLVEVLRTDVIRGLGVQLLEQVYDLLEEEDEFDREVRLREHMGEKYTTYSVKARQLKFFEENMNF
Sequence of UniProt Q15418 (whole entry, looked up): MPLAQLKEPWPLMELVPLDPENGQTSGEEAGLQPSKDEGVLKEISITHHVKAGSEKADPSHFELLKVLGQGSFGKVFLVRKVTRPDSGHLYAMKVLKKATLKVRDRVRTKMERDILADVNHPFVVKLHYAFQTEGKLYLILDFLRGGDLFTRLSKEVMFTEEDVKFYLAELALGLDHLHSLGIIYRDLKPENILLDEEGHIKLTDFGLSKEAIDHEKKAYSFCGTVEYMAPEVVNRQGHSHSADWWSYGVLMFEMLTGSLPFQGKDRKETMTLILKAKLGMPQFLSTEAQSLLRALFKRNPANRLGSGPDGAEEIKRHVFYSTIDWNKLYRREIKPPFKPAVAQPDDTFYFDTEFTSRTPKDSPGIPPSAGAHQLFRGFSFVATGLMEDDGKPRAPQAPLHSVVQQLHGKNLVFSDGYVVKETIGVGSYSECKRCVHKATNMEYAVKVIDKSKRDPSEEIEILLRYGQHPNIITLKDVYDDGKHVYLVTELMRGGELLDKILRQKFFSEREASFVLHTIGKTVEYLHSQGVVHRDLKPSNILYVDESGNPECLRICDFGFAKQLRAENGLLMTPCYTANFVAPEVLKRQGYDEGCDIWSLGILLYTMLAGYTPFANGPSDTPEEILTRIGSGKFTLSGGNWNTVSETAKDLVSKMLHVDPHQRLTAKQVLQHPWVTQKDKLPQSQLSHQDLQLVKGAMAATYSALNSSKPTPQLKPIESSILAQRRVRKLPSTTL
Sequence of UniProt P31749 (whole entry, looked up): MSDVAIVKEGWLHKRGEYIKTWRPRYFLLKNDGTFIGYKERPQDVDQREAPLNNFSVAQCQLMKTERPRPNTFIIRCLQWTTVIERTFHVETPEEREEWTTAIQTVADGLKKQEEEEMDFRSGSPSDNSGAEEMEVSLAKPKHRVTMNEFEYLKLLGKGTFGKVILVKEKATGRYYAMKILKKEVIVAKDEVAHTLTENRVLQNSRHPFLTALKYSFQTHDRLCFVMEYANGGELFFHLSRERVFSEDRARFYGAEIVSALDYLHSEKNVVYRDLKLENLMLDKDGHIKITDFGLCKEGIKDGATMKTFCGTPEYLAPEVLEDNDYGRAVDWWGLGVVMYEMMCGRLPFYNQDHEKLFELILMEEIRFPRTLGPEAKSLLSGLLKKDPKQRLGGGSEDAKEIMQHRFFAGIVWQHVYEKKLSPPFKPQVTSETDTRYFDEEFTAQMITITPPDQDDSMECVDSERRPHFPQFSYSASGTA
Sequence of UniProt P48729 (whole entry, looked up): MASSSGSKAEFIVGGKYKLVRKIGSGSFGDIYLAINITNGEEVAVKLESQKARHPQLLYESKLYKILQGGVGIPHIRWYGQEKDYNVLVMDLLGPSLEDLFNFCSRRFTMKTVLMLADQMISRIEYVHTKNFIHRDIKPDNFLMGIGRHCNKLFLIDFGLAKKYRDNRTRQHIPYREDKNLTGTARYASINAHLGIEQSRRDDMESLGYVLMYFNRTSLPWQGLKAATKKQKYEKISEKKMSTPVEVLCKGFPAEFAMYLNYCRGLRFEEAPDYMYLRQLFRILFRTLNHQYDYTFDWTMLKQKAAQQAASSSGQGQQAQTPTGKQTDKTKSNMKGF
Sequence of UniProt O00329 (whole entry, looked up): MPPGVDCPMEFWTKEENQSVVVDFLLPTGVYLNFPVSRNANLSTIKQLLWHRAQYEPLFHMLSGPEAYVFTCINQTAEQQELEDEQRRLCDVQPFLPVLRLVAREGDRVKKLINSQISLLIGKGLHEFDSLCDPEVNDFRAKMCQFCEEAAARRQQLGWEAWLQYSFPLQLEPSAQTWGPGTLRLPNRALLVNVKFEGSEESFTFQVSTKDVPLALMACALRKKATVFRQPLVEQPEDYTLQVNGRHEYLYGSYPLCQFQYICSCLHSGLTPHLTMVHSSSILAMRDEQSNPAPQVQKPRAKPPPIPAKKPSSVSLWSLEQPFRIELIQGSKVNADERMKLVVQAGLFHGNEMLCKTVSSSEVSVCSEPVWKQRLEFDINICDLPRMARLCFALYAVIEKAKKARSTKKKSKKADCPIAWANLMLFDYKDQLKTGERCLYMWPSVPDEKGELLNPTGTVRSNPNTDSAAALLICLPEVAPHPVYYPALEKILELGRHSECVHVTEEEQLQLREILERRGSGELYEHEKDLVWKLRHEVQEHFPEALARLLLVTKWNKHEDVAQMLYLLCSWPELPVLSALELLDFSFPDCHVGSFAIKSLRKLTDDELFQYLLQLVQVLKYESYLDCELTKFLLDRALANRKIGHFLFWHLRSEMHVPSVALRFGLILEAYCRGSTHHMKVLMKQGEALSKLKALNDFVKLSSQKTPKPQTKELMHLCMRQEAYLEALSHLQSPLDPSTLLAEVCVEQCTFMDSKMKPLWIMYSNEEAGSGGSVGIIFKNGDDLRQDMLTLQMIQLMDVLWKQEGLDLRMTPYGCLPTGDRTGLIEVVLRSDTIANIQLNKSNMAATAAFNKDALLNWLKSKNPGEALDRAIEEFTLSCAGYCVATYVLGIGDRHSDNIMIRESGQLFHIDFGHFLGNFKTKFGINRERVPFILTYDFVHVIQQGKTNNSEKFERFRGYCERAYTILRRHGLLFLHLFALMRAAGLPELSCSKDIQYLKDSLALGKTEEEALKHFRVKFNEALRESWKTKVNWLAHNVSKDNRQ
Sequence of UniProt Q96RR4 (whole entry, looked up): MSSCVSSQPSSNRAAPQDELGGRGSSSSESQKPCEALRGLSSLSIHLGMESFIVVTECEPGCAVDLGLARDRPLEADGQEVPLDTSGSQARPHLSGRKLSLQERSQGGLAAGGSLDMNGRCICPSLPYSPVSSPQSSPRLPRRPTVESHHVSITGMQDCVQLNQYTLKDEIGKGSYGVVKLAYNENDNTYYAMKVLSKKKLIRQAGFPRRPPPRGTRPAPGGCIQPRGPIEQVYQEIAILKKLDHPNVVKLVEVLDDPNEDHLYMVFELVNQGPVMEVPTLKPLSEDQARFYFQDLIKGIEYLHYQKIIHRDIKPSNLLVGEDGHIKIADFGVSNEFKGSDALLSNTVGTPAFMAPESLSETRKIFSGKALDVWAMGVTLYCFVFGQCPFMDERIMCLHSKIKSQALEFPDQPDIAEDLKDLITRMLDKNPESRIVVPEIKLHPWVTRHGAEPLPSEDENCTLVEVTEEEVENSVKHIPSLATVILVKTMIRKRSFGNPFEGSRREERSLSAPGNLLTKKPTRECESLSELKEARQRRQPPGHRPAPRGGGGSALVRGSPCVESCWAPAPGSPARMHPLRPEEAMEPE
Sequence of UniProt Q15759 (whole entry, looked up): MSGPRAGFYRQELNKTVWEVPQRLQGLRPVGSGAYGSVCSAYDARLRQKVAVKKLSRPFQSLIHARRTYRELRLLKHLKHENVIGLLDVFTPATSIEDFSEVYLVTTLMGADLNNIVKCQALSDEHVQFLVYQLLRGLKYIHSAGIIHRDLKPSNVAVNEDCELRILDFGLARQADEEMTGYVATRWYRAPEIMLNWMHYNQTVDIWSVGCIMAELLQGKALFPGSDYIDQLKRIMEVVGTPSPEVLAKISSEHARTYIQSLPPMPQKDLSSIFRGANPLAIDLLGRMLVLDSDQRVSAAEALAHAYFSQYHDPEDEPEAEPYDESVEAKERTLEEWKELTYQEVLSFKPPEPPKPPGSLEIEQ
Sequence of UniProt Q96Q40 (whole entry, looked up): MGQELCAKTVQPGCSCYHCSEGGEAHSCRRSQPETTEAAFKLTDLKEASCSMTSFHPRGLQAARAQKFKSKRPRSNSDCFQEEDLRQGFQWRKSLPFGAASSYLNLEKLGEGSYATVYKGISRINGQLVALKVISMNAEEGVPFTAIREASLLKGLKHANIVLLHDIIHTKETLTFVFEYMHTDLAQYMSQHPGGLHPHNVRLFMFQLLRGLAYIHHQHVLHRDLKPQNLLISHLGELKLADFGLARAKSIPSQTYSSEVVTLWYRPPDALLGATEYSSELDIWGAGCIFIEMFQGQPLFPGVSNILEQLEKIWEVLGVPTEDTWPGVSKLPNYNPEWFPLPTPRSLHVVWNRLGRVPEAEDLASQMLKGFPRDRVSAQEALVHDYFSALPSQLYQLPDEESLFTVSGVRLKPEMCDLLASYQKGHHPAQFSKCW

Study 1
SMILES: c1ccc(N2CCN(Cc3nc4ccccc4[nH]3)CC2)nc1
Technique: competition with immobilised ligand
Concentration: 1 µM
MAP3K19 (Homo sapiens, UniProt Q56UN5); binding — remaining binding: 100%.
The remaining binding was 74% (EGFR (Homo sapiens, UniProt P00533, L861Q); cell-free assay).
STK39 (Homo sapiens, UniProt Q9UEW8); binding — remaining binding: 100%.
It gave 100% for remaining binding (CDK2 (Homo sapiens, UniProt P24941); binding).
For Tyrosine-protein kinase ABL1, non-phosphorylated (ABL1, Homo sapiens, UniProt P00519, T315I); binding: remaining binding read 100%.
It gave 93% for remaining binding (FGFR4 (Homo sapiens, UniProt P22455); cell-free assay).
It gave 100% for remaining binding (NEK4 (Homo sapiens, UniProt P51957); binding).
It gave 100% for remaining binding (MET (Homo sapiens, UniProt P08581); cell-free assay).
CAMKK2 (Homo sapiens, UniProt Q96RR4); binding — remaining binding: 91%.
It gave 90% for remaining binding (EGFR (Homo sapiens, UniProt P00533, del752-759); cell-free assay).
CSNK1A1 (Homo sapiens, UniProt P48729); cell-free assay — remaining binding: 93%.
For CDK15 (Homo sapiens, UniProt Q96Q40); binding: remaining binding read 95%.
Ribosomal protein S6 kinase alpha-1, N-terminal kinase domain (RPS6KA1, Homo sapiens, UniProt Q15418); binding — remaining binding: 100%.
Tyrosine-protein kinase ABL1, phosphorylated (ABL1, Homo sapiens, UniProt P00519, T315I); binding — remaining binding: 100%.
AKT1 (Homo sapiens, UniProt P31749); binding — remaining binding: 90%.
For MAPK11 (Homo sapiens, UniProt Q15759); binding: remaining binding read 88%.
For PIK3CD (Homo sapiens, UniProt O00329); cell-free assay: remaining binding read 69%.

Study 2
Cell line: mouse MPNST tumor cells
Technique: high-content immunofluorescence imaging
Item: nuclear SOX9
Concentration: 10 µM
Time: 12 h
Notes: mean of 2 replicates
Relative to: DMSO control
Direction: higher = more nuclear SOX9
For `CCOc1ccccc1OCCN[C@H](C)Cc1ccc(OC)c(S(N)(=O)=O)c1`, “nuclear SOX9 intensity” read 105 % of DMSO.
`CC(C)OC(=O)CCC/C=C\C[C@@H]1[C@@H](CC[C@@H](O)CCc2ccccc2)[C@H](O)C[C@@H]1O` — result for “nuclear SOX9 intensity”: 103 % of DMSO.
For `Cc1nc(C#Cc2cccnc2)cs1`, “nuclear SOX9 intensity” read 118 % of DMSO.

Study 3
Species: mouse
Sample: microsomes or S9
Concentration: 2 µM
Time: 0.5 h
For `CNc1ncc(C(=O)NC[C@H]2CC[C@@H]3C[C@H]2C3(C)C)cn1`, the remaining compound was 0.866%.
With `CCn1nccc1-c1cc(C(=O)O)c2ccc(Cl)c(C)c2n1` the remaining compound was 79.5%.
For `CCO[C@H]1CN(Cc2cc(=O)c3c(C)ccc(C)c3[nH]2)C[C@@H]1O`, the remaining compound was 17.6%.
`COC(=O)c1ccc(S(C)(=O)=O)c(O)c1Cl` has a remaining compound of 65.3%.

Study 4
SMILES: CC(C)n1cnc(-c2ccc(F)cc2)c1-c1ncc(C(=O)Nc2ccc(N3CCN(C)CC3)cc2)[nH]1
Species: idiopathic pulmonary fibrosis patients
For phase 2a trial; all arms pooled, grade 1 emergent event: “patients with hypothyroidism” read 0%.
dose not given, all compound arms, grade 5 — “patients with hypothyroidism”: 0%.
phase 2a trial; 30 mg once daily, grade 3 emergent event — “patients with hypothyroidism”: 0%.

Study 5
Organism: Sarcocystis neurona
Effect on: parasite growth
Concentration: 10 µM
Time: 96 h
Relative to: untreated
`C[C@H]1O[C@@H](O[C@H]2[C@@H](O)C[C@H](O[C@H]3[C@@H](O)C[C@H](O[C@H]4CC[C@@]5(C)[C@H](CC[C@@H]6[C@@H]5C[C@@H](O)[C@]5(C)[C@@H](C7=CC(=O)OC7)CC[C@]65O)C4)O[C@@H]3C)O[C@@H]2C)C[C@H](O)[C@@H]1O`: “log2 fold change” -1.03.
`COCCOC(=O)C1=C(C)NC(C)=C(C(=O)OC(C)C)C1c1cccc([N+](=O)[O-])c1` (stereo not shown): “log2 fold change” 0.29.
For `CC(C)c1ccc2oc3nc(N)c(C(=O)O)cc3c(=O)c2c1`, “log2 fold change” read 2.64.
For `CCCSc1ccc2nc(NC(=O)OC)[nH]c2c1`, “log2 fold change” read 1.62.

Other studies, line by line
Technique: logD(dd/w) and ALogP
Notes: JT method
For `CC(C)C[C@@H]1NC(=O)[C@H](C(C)C)NC(=O)[C@H](Cc2cscn2)NC(=O)[C@@H](CC(C)C)NC(=O)[C@H](C(C)C)NC(=O)[C@H](CC(C)C)NC(=O)[C@@H](CC(C)C)NC1=O`, “lipophilic permeability efficiency” read 2.26.
`CC(C)C[C@@H]1NC(=O)[C@H](CC(C)C)NC(=O)[C@@H](CC(C)C)NC(=O)[C@H](C(C)C)NC(=O)[C@@H](Cc2cscn2)NC(=O)[C@@H](CC(C)C)NC(=O)[C@H](C)NC1=O` — result for “lipophilic permeability efficiency”: 2.23.
Under “lipophilic permeability efficiency”, `CC(C)C[C@@H]1NC(=O)[C@H](CC(C)C)NC(=O)[C@H](CC(C)C)NC(=O)[C@H](CC(C)C)NC(=O)[C@@H](CCC(=O)N2CCCC2)NC(=O)[C@H](Cc2cscn2)NC(=O)[C@H](C)NC1=O` is recorded as 2.23.

Some of these lines once more (study 3):
For `CCO[C@H]1CN(Cc2cc(=O)c3c(C)ccc(C)c3[nH]2)C[C@@H]1O`, the remaining compound was 17.6%.
`COC(=O)c1ccc(S(C)(=O)=O)c(O)c1Cl` has a remaining compound of 65.3%.
For `CNc1ncc(C(=O)NC[C@H]2CC[C@@H]3C[C@H]2C3(C)C)cn1`, the remaining compound was 0.866%.
With `CCn1nccc1-c1cc(C(=O)O)c2ccc(Cl)c(C)c2n1` the remaining compound was 79.5%.
